Published values gathered from unrelated publications.
Every numbered part comes from another study and shows a few of its results, in no order.

Set 1 — technique: RNA Bind-n-Seq; form: RNA; medium: in vitro; tested at: 200 nM; notes: whole 134-nt RNA, ends assumed; together with: 150 mM LiCl; reference: input library; direction: higher = stronger binding; each molecule: 7-deaza-guanosine replaces G
Target: Ras GTPase-activating protein-binding protein 1, full length (G3BP1, Homo sapiens, UniProt Q13283)
UniProt Q13283, sequence (whole entry, looked up): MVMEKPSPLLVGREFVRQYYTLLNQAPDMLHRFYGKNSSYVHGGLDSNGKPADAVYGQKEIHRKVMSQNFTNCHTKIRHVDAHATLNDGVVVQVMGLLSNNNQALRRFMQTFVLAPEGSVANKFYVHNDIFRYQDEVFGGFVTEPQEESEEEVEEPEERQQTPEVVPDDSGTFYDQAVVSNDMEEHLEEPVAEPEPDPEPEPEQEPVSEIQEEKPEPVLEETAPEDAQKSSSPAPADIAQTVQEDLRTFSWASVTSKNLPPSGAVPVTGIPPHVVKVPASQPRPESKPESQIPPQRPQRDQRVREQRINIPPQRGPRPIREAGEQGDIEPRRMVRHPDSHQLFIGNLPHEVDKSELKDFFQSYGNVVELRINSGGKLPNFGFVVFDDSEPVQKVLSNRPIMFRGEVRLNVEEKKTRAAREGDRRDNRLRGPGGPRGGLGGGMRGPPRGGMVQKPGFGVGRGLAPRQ
All sequences stand within: GGGAGUUCUACAGUCCGACGAUC … UGGAAUUCUCGGGUGUCAAGG
| Strand | log2 enrichment |
| --- | --- |
| AAGUCCUGUGCUACACAUCGUAUGUACCGAAUCGGGGAAAAGGAAAAGGGAAAAGGAAAGUAUUAUGUUACGCCGUUCGGAUCUGCACUU | -0.379 |
| GGCAGUAGCAGCAGCGCCGGGUCCCGUGCGGAGGUGCUCCUCGCAGAGUUGUUUCUCGAGCAGCGGCAGUUCUCACUACAGCGCCAGGAC | -0.881 |
| UUUUACAUUUAUACACAUGUAUUGGCUUCCUUUUACACUAUUAGGCGGUCAAGAAGCAGAUCGAGACGGCGGUCACAUUCUAAGUCUAGG | -0.703 |
| CACAGACAACACGCACCCACACAGACACAGAGGGAAGGGGUUGGGAUGGGGACAGAGUGCACAGCAGGGCGGGGUAGGACCCCAGCCCCU | -0.0925 |
| CCUGUGCUACACAUCGUAUGUACCGAAUCGGGGAAAAAAAGGGGUUUGGGGUUUUUGGGGAAAGUAUUAUGUUACGCCGUUCGGAUCUGC | -0.0657 |
| GUCCUGUGCUACACAUCGUAUGUACCGAAUCGGGGAAAAAGGGGUUUGGGGUUUGGGGAAAGUAUUAUGUUACGCCGUUCGGAUCUGCAC | -0.909 |
| GCAGGAAGUAAAAACAAAUGGAAAUGCUUCGGAUAGUGGCCGGGGUGGGGGUUGCUAAGGAAAGGGUGGGAUGGGAGUGGGUAAAGAGUU | 0.238 |
| UGUGCUACACAUCGUAUGUACCGAAUCGGGCCCCCCCGGGGCCCCCCCGGGGCCCCCCCGGGAAAGUAUUAUGUUACGCCGUUCGGAUCU | -1.12 |
| UCAAGUCCUGUGCUACACAUCGUAUGUACCGAAUCGGUUUGGUUUGGGGUUUGGAAAGUAUUAUGUUACGCCGUUCGGAUCUGCACUUCC | -0.714 |
| UCCUGUGCUACACAUCGUAUGUACCGAAUCGGGGAAAAAGGGGAGGGGAAAAAAAGGGGAAAGUAUUAUGUUACGCCGUUCGGAUCUGCA | 0.414 |
| CCUCAAGUCCUGUGCUACACAUCGUAUGUACCGAAUCGGUUUGGAGGAAAGGAAAGUAUUAUGUUACGCCGUUCGGAUCUGCACUUCCAG | -0.148 |

Set 2 — technique: protein-binding microarray; form: double-stranded DNA, one strand shown; medium: in vitro; tested at: 0.8 µM; notes: whole 60-bp probe, no competitor; direction: higher = stronger binding; all sequences stand within: … GTCTTGATTCGCTTGACGCTGCTG
Target: Centromere-binding protein 1, full length, N-terminal tag (CBF1, Saccharomyces cerevisiae, UniProt P17106, residues 1-351)
UniProt P17106, sequence (whole entry, looked up): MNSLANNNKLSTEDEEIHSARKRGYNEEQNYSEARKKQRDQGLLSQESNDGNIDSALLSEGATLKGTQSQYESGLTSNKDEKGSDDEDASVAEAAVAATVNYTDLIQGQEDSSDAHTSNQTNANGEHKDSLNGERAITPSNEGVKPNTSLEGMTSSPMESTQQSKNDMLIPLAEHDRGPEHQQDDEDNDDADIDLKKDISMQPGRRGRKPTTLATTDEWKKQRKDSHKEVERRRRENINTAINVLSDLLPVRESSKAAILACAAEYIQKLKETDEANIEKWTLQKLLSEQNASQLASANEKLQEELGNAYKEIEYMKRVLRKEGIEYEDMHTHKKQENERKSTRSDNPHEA
| Strand | fluorescence intensity [a.u.] |
| --- | --- |
| CTACATTCCGCTCATCATCACTAATATTGCTCTTTC | 576 |
| CTATTGACGCGTCAGAACGTGTGTTTTAGGAATTTC | 522 |
| CTAACTAGAGGCCGTCATGTATAAAATGTGGTATTC | 530 |
| CTAGTCCATCACGGTCACATGGTGCAGTACTTCTTC | 5230 |
| CTAAAAAATCTTGATCACATCAACCAAAAATGTTTC | 560 |
| CTAAATACATGCAGGTGACTGATAGAAAAGACATTC | 2330 |
| GAATTATTATTCTATCACGATCTGAGTCCCTGCTAG | 624 |
| CTAGTGATAGAAGAAAAGGTGACGAAAAGATTGTTC | 589 |
| CTACTTATCAAATGTCACCTATGTACGCTCCACTTC | 549 |
| CTAGTAAAAGTACGGCACGTGACCTTCCTGGTATTC | 22800 |
| CCTAACTACTATAGTGCTGATGTATAGCTTCGTACA | 508 |
| CTATAATAAATAGTACACGTTGCAGACATATTTTTC | 638 |
| CTAAGAGACATTGGCCACGAGGAGTGTAGCGGCTTC | 531 |
| TGTACGAAGCTATGCCACGATCCTATAGTAGTTAGG | 523 |
| CCTAACTACTATAACGTGATGGTATAGCTTCGTACA | 1070 |
| CTAATTAGCTTTAAGCACATGTATATTGGACATTTC | 640 |
| GAAATTTATGGGCACCTGATAATGCTTGGCAGCTAG | 1780 |
| GAAATTTATCAAATACATGTGAATTAAAAATTATAG | 750 |
| CTAGTTTATCAATAACGTGTGCATCGTCGATATTTC | 584 |
| GAAATAGGCAAGTGTCATGTGCCCTAACAGAAATAG | 1660 |
| CTATCCATTTATATAAACGTGTGCATATTAATGTTC | 763 |
| CTACTTTTTTTTTCTTGCGTGATCCTGCACTATTTC | 622 |
| CTATTAGTTAAGCACGTGCCGATGATATCAATTTTC | 17200 |

Set 3 — technique: aptamer microarray, sandwich; form: DNA with 2'F-ANA; medium: in vitro; tested at: 200 nM; together with: Cy3 exosite-II aptamer, 400 nM; direction: higher = stronger binding; strand: GGTTGGTGTGGTTGG
Target: Prothrombin, mature alpha-thrombin (F2, Homo sapiens, UniProt P00734)
Notes: whole 15-mer aptamer, many near background
| Modification | mean fluorescence intensity [a.u.] |
| --- | --- |
| 2'F-ANA at 1 4 7 8 11 13 | 106 |
| 2'F-ANA at 1 3 4 5 8 10 11 15 | 53 |
| 2'F-ANA at 3 4 6 9 13 | 429 |
| 2'F-ANA at 1 2 3 5 6 7 8 10 11 13 | 49.2 |
| 2'F-ANA at 1 2 8 9 11 12 14 | 141 |
| 2'F-ANA at 1 6 7 8 10 11 15 | 53.5 |
| 2'F-ANA at 2 4 5 6 9 10 12 15 | 51 |
| 2'F-ANA at 5 6 10 14 15 | 115 |
| 2'F-ANA at 2 4 9 13 14 | 84.7 |
| 2'F-ANA at 1 2 5 6 9 10 12 14 | 50.3 |
| 2'F-ANA at 6 9 10 13 | 137 |
| 2'F-ANA at 3 6 7 9 10 12 | 625 |
| 2'F-ANA at 1 3 4 6 7 10 12 14 | 55.5 |
| 2'F-ANA at 2 3 4 5 6 7 8 9 11 13 14 | 51.6 |
| 2'F-ANA at 1 2 6 8 9 10 15 | 56 |
| 2'F-ANA at 2 3 6 8 9 10 11 12 13 15 | 321 |
| 2'F-ANA at 1 2 3 5 7 8 11 13 14 | 48.1 |
| 2'F-ANA at 2 5 7 8 9 12 13 15 | 120 |
| 2'F-ANA at 4 9 10 12 13 15 | 89.2 |
| 2'F-ANA at 1 2 3 5 6 7 11 13 | 71.5 |
| 2'F-ANA at 3 4 5 10 11 13 14 | 48.8 |
| 2'F-ANA at 2 3 4 5 7 10 11 12 15 | 58.1 |
| 2'F-ANA at 3 4 5 6 8 12 13 15 | 156 |

Set 4 — technique: protein binding microarray; form: double-stranded DNA, one strand shown; medium: in vitro; tested at: not given; reference: not given; direction: higher = stronger binding
Target: Histone acetyltransferase KAT6A, both winged helices, GST fusion (KAT6A, Homo sapiens, UniProt Q92794, residues 1-181)
Notes: 8-mer, flanks averaged, mean of 2 arrays, mostly near background
Target sequence (chain): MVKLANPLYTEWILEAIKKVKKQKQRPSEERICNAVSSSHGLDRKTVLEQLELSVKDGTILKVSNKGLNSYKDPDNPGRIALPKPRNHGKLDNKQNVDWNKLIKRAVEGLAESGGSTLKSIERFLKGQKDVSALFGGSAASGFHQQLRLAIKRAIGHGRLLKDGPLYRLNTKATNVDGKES
| Strand | E-score |
| --- | --- |
| CCCTTAGG | -0.24 |
| CAGCGTAG | 0.0588 |
| GGAGCTAC | -0.12 |
| CTCATTTA | -0.247 |
| AATAGGGT | -0.195 |
| ACAGATGA | -0.153 |
| AGCAATAT | -0.151 |
| ACTAGCTG | -0.171 |
| AGCCCCGA | -0.0399 |
| AGTATAGG | -0.00556 |
| CGCGGCAC | 0.31 |
| CATCATAC | -0.0425 |
| CCTGGACG | -0.0757 |
| ATGGCGCC | 0.219 |
| CATCATCG | -0.113 |
| CCTGTGTA | -0.0244 |
| GACAGTCC | 0.0122 |
| CTTATGTA | -0.168 |

Set 5 — technique: universal PBM; form: double-stranded DNA, one strand shown; medium: in vitro; tested at: 600 nM; direction: higher = stronger binding
Target: Sal-like protein 4, full length isoform A (SALL4, Homo sapiens, UniProt Q9UJQ4, residues 1-1053)
UniProt Q9UJQ4, sequence (whole entry, looked up): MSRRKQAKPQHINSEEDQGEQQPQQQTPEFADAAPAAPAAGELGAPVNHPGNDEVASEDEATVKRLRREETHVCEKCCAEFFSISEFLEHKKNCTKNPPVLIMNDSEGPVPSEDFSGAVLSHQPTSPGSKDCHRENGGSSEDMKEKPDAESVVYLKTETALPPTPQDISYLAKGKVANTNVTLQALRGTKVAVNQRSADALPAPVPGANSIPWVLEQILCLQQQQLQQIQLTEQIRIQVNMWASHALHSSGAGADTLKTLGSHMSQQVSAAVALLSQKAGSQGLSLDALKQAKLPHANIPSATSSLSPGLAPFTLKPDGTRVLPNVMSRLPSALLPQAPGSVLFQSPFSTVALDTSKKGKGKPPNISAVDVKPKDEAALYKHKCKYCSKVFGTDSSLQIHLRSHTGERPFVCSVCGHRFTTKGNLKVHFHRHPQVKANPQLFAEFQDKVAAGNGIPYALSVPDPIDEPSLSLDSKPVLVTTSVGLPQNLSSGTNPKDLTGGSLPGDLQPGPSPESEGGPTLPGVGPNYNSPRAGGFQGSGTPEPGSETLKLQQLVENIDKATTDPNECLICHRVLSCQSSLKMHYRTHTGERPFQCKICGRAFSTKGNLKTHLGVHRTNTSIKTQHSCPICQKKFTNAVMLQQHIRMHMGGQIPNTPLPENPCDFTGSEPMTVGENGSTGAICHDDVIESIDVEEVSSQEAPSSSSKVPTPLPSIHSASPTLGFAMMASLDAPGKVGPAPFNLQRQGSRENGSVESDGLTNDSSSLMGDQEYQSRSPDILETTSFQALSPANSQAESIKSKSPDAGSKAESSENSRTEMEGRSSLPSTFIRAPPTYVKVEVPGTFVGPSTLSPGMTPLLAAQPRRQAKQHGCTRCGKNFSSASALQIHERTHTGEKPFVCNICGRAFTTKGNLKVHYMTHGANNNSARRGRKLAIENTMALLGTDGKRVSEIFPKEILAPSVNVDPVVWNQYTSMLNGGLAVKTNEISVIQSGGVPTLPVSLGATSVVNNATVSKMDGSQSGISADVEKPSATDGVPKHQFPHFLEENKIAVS
Notes: 8-mer, flanks averaged, mean of replicates
| Strand | E-score |
| --- | --- |
| AAACGGGA | -0.0481 |
| CAGTCGGG | -0.228 |
| CCAAGCCC | -0.281 |
| GCCTTTGA | -0.0861 |
| GAGCGTAC | -0.0856 |
| ACAACCAA | 0.0465 |
| ATGGTTCG | 0.00704 |
| CGTGTAGA | 0.0631 |
| CCGCTATA | 0.122 |
| TAACGCGA | 0.0565 |
| CATGTTGA | 0.264 |
| ACCCACAA | 0.0677 |
| ATTCATCA | 0.308 |
| CACTTCTC | -0.121 |
| AGACGCTC | -0.18 |
| TAGTAAAA | 0.317 |
| CTAACTAG | 0.163 |
| ACGGTTAC | 0.0181 |
| ACTGCACC | -0.119 |
| ACAGGTGA | 0.0811 |
| ACTACGGA | -0.0782 |
| AGAACTTG | 0.107 |
| GACGATGA | 0.0609 |

Excerpt of the above (set 1):
| Strand | log2 enrichment |
| --- | --- |
| GGCAGUAGCAGCAGCGCCGGGUCCCGUGCGGAGGUGCUCCUCGCAGAGUUGUUUCUCGAGCAGCGGCAGUUCUCACUACAGCGCCAGGAC | -0.881 |
| UUUUACAUUUAUACACAUGUAUUGGCUUCCUUUUACACUAUUAGGCGGUCAAGAAGCAGAUCGAGACGGCGGUCACAUUCUAAGUCUAGG | -0.703 |
| CACAGACAACACGCACCCACACAGACACAGAGGGAAGGGGUUGGGAUGGGGACAGAGUGCACAGCAGGGCGGGGUAGGACCCCAGCCCCU | -0.0925 |
| CCUGUGCUACACAUCGUAUGUACCGAAUCGGGGAAAAAAAGGGGUUUGGGGUUUUUGGGGAAAGUAUUAUGUUACGCCGUUCGGAUCUGC | -0.0657 |
| GUCCUGUGCUACACAUCGUAUGUACCGAAUCGGGGAAAAAGGGGUUUGGGGUUUGGGGAAAGUAUUAUGUUACGCCGUUCGGAUCUGCAC | -0.909 |
| GCAGGAAGUAAAAACAAAUGGAAAUGCUUCGGAUAGUGGCCGGGGUGGGGGUUGCUAAGGAAAGGGUGGGAUGGGAGUGGGUAAAGAGUU | 0.238 |
| UGUGCUACACAUCGUAUGUACCGAAUCGGGCCCCCCCGGGGCCCCCCCGGGGCCCCCCCGGGAAAGUAUUAUGUUACGCCGUUCGGAUCU | -1.12 |
| UCAAGUCCUGUGCUACACAUCGUAUGUACCGAAUCGGUUUGGUUUGGGGUUUGGAAAGUAUUAUGUUACGCCGUUCGGAUCUGCACUUCC | -0.714 |
